Measurements of several laboratories.
Protocols differ between the studies behind these lines. ± marks the error that the study gave.
Method: steady-state kinetics
B1: IYD (Homo sapiens, UniProt Q6PHW0); chain MGEPRTRAEARPWVDEDLKDSSDLHQAEEDADEWQESEENVEHIPFSHNHYPEKEMVKRSQEFYELLNKRRSVRFISNEQVPMEVIDNVIRTAGTAPSGAHTEPWTFVVVKDPDVKHKIRKIIEEEEEINYMKRMGHRWVTDLKKLRTNWIKEYLDTAPILILIFKQVHGFAANGKKKVHYYNEISVSIACGILLAALQNAGLVTVTTTPLNCGPRLRVLLGRPAHEKLLMLLPVGYPSKEATVPDLKRKPLDQIMVTV
B2: GTPBP3 E159V (Homo sapiens, UniProt Q969Y2); chain TRRSSGAPAPGSGATIFALSSGQGRCGIAVIRTSGPASGHALRILTAPRDLPLARHASLRLLSDPRSGEPLDRALVLWFPGPQSFTGEDCVEFHVHGGPAVVSGVLQALGSVPGLRPAEAGEFTRRAFANGKLNLTEVVGLADLIHAETEAQRRQALRQLDGELGHLCRGWAETLTKALAHVEAYIDFGEDDNLEEGVLEQADIEVRALQVALGAHLRDARRGQRLRSGVHVVVTGPPNAGKSSLVNLLSRKPVSIVSPEPGTTRDVLETPVDLAGFPVLLSDTAGLREGVGPVEQEGVRRARERLEQADLILAMLDASDLASPSSCNFLATVVASVGAQSPSDSSQRLLLVLNKSDLLSPEGPGPGPDLPPHLLLSCLTGEGLDGLLEALRKELAAVCGDPSTDPPLLTRARHQHHLQGCLDALGHYKQSKDLALAAEALRVARGHLTRLTGGGGTEEILDIIFQDFCVGK
B3: Tcur_2987 W376F (Thermomonospora curvata, UniProt D1A807); chain ACSEERAAGARPSATQTTGTATEPFHGPHQAGIATPPQAHAVFLGLDLRKGTGRKELGRLMRLLTDDARRLTQGRPALADPEPDLAPLPSRLTFTFGFGPGLFKAAGLEKQRPEGLRPLPPFKVDRLEDRWSGGDLLVQICCDDPITLAHALRMTVKDARAFTRVRWVQRGFRRSPGVQSSGATQRNLMGQLDGTVNPVPGTADFDQAVWVQDGPEWLRGGTTLVLRRIRMELEKWDEADPAGKEFAVGRRLTSGAPLTGRHEHDEPDFDAVDSAGFPVIAENAHIRLAHVDSPRLRMLRRPYNYDEGLTADGRSDAGLLFAAYQADIDRQFIPVQRRLDEGGDLLNLFTTPIGSAVFAIPPGCDENGWIGQGLLG
B4: protein (Streptomyces sp. NRRL 30471, UniProt F2WUC8); chain MVRADYRTPEVNDVVRYRYGAAETALLKNRISEFGFTMAEVPGECAPQTEIERLGKALGLGEPYVAALYQRGDTRAHGALYTDVRSRAHNTHPGFGTTEGQTIHVDGLLEPIGTIRTTILFCVRPAVSGGRTVLFNSSAAFETLRHSDPAAAESLRDPGVLRRRSTLPNVDAGHTGPAFAYDNGLLITRYSEGPTVEWNAPPGRSAELERALNFLRAAAEDKRYSIALRLGAGEALIFRNDVISHGREAYRDDPAAPRHLIRTLYLESP
B5: LYPLA1 (Homo sapiens, UniProt O75608); chain MCGNNMSTPLPAIVPAARKATAAVIFLHGLGDTGHGWAEAFAGIRSSHIKYICPHAPVRPVTLNMNVAMPSWFDIIGLSPDSQEDESGIKQAAENIKALIDQEVKNGIPSNRIILGGFSQGGALSLYTALTTQQKLAGVTALSCWLPLRASFPQGPIGGANRDISILQCHGDCDPLVPLMFGSLTVEKLKTLVNPANVTFKTYEGMMHSSCQQEMMDVKQFIDKLLPPID
B6: FDC1 (Saccharomyces cerevisiae, UniProt Q03034); chain MRKLNPALEFRDFIQVLKDEDDLIEITEEIDPNLEVGAIMRKAYESHLPAPLFKNLKGASKDLFSILGCPAGLRSKEKGDHGRIAHHLGLDPKTTIKEIIDYLLECKEKEPLPPITVPVSSAPCKTHILSEEKIHLQSLPTPYLHVSDGGKYLQTYGMWILQTPDKKWTNWSIARGMVVDDKHITGLVIKPQHIRQIADSWAAIGKANEIPFALCFGVPPAAILVSSMPIPEGVSESDYVGAILGESVPVVKCETNDLMVPATSEMVFEGTLSLTDTHLEGPFGEMHGYVFKSQGHPCPLYTVKAMSYRDNAILPVSNPGLCTDETHTLIGSLVATEAKELAIESGLPILDAFMPYEAQALWLILKVDLKGLQALKTTPEEFCKKVGDIYFRTKVGFIVHEIILVADDIDIFNFKEVIWAYVTRHTPVADQMAFDDVTSFPLAPFVSQSSRSKTMKGGKCVTNCIFRQQYERSFDYITCNFEKGYPKGLVDKVNENWKRYGYK
Chain of UniProt P09950 (whole entry, unmodified, looked up): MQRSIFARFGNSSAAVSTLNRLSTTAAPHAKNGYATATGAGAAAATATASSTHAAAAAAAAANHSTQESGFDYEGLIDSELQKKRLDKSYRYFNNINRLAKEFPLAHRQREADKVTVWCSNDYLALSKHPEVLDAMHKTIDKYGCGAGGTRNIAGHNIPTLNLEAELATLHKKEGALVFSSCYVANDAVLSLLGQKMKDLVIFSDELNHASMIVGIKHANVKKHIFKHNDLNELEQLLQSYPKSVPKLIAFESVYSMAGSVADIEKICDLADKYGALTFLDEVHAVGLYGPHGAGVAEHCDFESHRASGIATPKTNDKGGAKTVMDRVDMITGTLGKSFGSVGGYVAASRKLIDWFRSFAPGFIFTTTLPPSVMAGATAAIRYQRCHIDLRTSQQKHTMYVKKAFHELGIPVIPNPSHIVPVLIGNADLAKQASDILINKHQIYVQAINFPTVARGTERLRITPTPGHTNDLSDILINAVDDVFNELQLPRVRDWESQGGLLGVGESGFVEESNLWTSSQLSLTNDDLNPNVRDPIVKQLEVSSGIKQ
Chain of UniProt P07914 (whole entry, looked up): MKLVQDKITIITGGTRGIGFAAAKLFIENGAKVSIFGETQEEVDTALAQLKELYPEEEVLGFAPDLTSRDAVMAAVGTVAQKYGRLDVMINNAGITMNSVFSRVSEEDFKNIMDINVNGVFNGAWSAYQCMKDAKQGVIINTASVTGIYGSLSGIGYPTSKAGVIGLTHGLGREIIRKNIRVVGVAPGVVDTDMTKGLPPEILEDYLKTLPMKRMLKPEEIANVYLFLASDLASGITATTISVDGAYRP
Chain of UniProt Q8QZR1 (whole entry, looked up): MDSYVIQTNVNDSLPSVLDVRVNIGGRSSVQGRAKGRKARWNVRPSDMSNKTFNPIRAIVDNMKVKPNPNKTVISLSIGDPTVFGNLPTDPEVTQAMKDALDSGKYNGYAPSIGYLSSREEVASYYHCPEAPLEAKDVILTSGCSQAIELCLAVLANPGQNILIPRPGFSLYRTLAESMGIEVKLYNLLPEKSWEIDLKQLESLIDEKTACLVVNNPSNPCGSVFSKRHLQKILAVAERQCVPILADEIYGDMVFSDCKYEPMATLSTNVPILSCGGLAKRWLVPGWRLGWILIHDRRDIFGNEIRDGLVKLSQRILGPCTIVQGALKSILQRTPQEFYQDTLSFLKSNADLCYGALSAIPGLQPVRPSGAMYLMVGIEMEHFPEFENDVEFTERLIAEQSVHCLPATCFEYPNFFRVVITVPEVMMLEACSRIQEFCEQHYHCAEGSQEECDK

For `HEM1 (Saccharomyces cerevisiae, UniProt P09950)`, the kcat was 0.0333 ± 0.00167 s⁻¹ (CC(C)(COP(=O)(O)OP(=O)(O)OC[C@H]1O[C@@H](n2cnc3c(N)ncnc32)[C@H](O)[C@@H]1OP(=O)(O)O)[C@@H](O)C(=O)NCCC(=O)NCCSC(=O)CCC(=O)O; pH 7.4, 30 °C).
For `B1 (IYD)`, the kcat was 0.06 ± 0.008 s⁻¹ (N[C@@H](Cc1cc(F)c(O)c(I)c1)C(=O)O; pH 7.4, 25 °C, together with: sodium dithionite 0.5%).
For `B2 (GTPBP3 E159V)`, the kcat was 0.0125 ± 0.00233 s⁻¹ (Nc1nc2c(ncn2[C@@H]2O[C@H](COP(=O)(O)OP(=O)(O)OP(=O)(O)O)[C@@H](O)[C@H]2O)c(=O)[nH]1; pH 8, 37 °C, KCl 300 mM).
With `speG (Vibrio cholerae, UniProt Q9KL03)` the kcat was 92.1 s⁻¹ (CC(=O)SCCNC(=O)CCNC(=O)[C@H](O)C(C)(C)COP(=O)(O)OP(=O)(O)OC[C@H]1O[C@@H](n2cnc3c(N)ncnc32)[C@H](O)[C@@H]1OP(=O)(O)O; pH 9, 37 °C).
The kcat of `Tat (Mus musculus, UniProt Q8QZR1)` is reported as 15.3 ± 3.5 s⁻¹ (N[C@@H](Cc1ccccc1)C(=O)O; pH 7, 38 °C, 100 mM phosphate, together with: 10 mM KGA; PLP).
`B3 (Tcur_2987 W376F)` gave a kcat of 119 ± 5 s⁻¹ (Nc1c(S(=O)(=O)O)cc(Nc2cccc(S(=O)(=O)CCOS(=O)(=O)O)c2)c2c1C(=O)c1ccccc1C2=O; pH 3, sigmoidal kinetics, together with: H2O2 1 mM).
`B4 (protein)` has a kcat of 2.3 ± 0.2 s⁻¹ (O=c1ccn([C@H]2C[C@H](O)[C@@H](COP(=O)(O)O)O2)c(=O)[nH]1; pH 7.5, 30 °C, together with: αKG 2 mM, ascorbic acid 2 mM, FeCl2 0.4 mM).
With `BaiA1 (Clostridium scindens, UniProt P07914)` the kcat was 0.55 s⁻¹ (C[C@H](CCC(=O)SCCNC(=O)CCNC(=O)[C@H](O)C(C)(C)COP(=O)(O)OP(=O)(O)OC[C@H]1O[C@@H](n2cnc3c(N)ncnc32)[C@H](O)[C@@H]1OP(=O)(O)O)[C@H]1CC[C@H]2[C@@H]3[C@H](O)C[C@@H]4CC(=O)CC[C@]4(C)[C@H]3C[C@H](O)[C@]12C; pH 8.7, 37 °C, together with: NADH).
For `B5 (LYPLA1)`, the kcat was 0.046 ± 0.004 s⁻¹ (CN(C)c1ccc(/N=N/c2ccc(C(=O)NCCCn3cc(CCCCCCCCCCCCCCCC(=O)SC[C@H](NC(=O)c4cc5ccc(O)cc5oc4=O)C(=O)N4CCOCC4)nn3)cc2)cc1; pH 7.4, 37 °C).
With `B6 (FDC1)` the kcat was 3.8 ± 0.3 s⁻¹ (COc1cc(/C=C/C(=O)O)ccc1O; pH 7, 25 °C, apparent kcat, incomplete cofactor occupancy, apparent).

A few entries again:
For `B5 (LYPLA1)`, the kcat was 0.046 ± 0.004 s⁻¹ (CN(C)c1ccc(/N=N/c2ccc(C(=O)NCCCn3cc(CCCCCCCCCCCCCCCC(=O)SC[C@H](NC(=O)c4cc5ccc(O)cc5oc4=O)C(=O)N4CCOCC4)nn3)cc2)cc1; pH 7.4, 37 °C).
